Results collected from several papers.
Numbered parts are unrelated; each lists some results of a single study.

Study 1
Target: Phosphate system positive regulatory protein PHO4, full length, GST-tagged (PHO4, Saccharomyces cerevisiae, UniProt P07270, residues 1-312)
Technique: competition protein-binding microarray
Form: double-stranded DNA, one strand shown
Medium: in vitro
Tested at: 2 µM
Notes: whole 60-bp probe, lowest competitor level
Added: Cbf1 competitor, 0.05 µM
Reading: higher = stronger binding
Endpoint: fluorescence intensity
Target sequence (chain): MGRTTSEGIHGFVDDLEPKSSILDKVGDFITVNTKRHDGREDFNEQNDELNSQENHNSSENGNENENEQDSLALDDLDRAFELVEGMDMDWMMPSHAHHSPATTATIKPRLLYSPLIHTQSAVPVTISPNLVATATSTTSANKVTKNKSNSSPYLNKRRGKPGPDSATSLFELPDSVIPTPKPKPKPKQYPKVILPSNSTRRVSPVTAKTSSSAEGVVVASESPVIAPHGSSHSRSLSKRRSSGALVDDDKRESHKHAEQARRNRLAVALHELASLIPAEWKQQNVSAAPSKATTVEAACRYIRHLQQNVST
CCAGTCCCTCAGCACCACGTGGGACTTAGGGGCAAAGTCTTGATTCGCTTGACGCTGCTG: 15800 a.u.
CCACCATCGTTACCAAATGTGACGGCTGCACCTAAAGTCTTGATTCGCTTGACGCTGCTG: 4570 a.u.
GACGGGCGCTGGGGACTCGTGCCGATCCGGGACTGGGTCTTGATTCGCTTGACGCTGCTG: 10100 a.u.
ATTAGGGGACCTACACGCCTGAAAGTTTTTTAGATAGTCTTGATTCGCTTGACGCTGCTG: 5540 a.u.
AATGCACTTGATTTGCACGTGGGACCTGGGCGGCTAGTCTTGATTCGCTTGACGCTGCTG: 17600 a.u.
TGAAAAATTTTCGGTAGCGTGCTTTAGCCGGTATAAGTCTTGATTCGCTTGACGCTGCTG: 7170 a.u.

Study 2
Target: Interferon regulatory factor 7, full length, phosphomimetic (IRF7, Homo sapiens, UniProt Q92985, residues 1-503, S101K/S471D/S472D/S475D/S476D/S477D/S483D/S484D/S487D)
Technique: protein-binding microarray
Form: double-stranded DNA, one strand shown
Medium: in vitro
Tested at: 250 nM
Notes: 60-bp whole probe
Added: salmon DNA 0.4 mg/ml
Baseline: random background probes
Reading: higher = stronger binding
Endpoint: log fluorescence
All sequences stand within: GCCTAGCAC … GTCTTGATTCGCTTGACGCTGCTG
Residues (chain): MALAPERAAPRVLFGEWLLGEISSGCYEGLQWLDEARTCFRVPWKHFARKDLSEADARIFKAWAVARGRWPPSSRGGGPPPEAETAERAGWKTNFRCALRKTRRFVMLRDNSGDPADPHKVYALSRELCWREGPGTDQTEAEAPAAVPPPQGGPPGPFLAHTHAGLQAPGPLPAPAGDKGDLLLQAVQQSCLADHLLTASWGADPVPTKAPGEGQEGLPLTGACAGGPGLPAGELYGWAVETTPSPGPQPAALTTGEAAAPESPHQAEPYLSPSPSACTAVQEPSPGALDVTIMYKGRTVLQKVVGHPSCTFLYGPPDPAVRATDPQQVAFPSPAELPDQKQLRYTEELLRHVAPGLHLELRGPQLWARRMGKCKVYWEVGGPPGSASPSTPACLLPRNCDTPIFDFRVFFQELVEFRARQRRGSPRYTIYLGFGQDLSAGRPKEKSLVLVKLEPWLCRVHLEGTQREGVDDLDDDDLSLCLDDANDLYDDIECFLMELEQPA
CATACAATTTCAGATTCCAGTGTGCTA: 0.622 z-score
GACGGACTGGGTCCCGGGACGTGCTAG: -0.243 z-score
TTAGGTATCGGTACTGGGTTAGTGCTA: 0.177 z-score
GACGATTTCGGGACTGGAGCCGTGCTA: 0.0142 z-score
TTAGGTTTCGGTCTCGGTTAGTGCTAG: 8.67 z-score
TTAGGTATCCTTCTCGTTTAGTGCTAG: 0.997 z-score

Study 3
Target: Histone acetyltransferase KAT6A, both winged helices, GST fusion (KAT6A, Homo sapiens, UniProt Q92794, residues 1-181)
Technique: protein binding microarray
Form: double-stranded DNA, one strand shown
Medium: in vitro
Tested at: not given
Notes: 8-mer, flanks averaged, mean of 2 arrays, mostly near background
Baseline: not given
Reading: higher = stronger binding
Endpoint: E-score
Construct (chain): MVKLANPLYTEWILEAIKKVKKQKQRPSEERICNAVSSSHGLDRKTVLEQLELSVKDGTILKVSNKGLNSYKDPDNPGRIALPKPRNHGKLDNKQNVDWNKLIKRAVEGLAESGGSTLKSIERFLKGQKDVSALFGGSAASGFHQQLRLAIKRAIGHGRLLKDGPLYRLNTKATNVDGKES
CTCACATC: -0.0804
CTCATTCA: -0.204
AGCCGGAG: 0.16
ATTCAAAC: -0.0459
AATGCTAG: -0.119
CCATTTGA: -0.0181
ATGGCACC: 0.0531
ACGGCCCT: 0.0521
CGGAATCA: 0.214

Other studies, line by line
PhoQ, residues 284 288 289 292 302 303 TNSAEL
fold induction (PhoP, residues 12 14 15 18 19 LHHSG (Escherichia coli, UniProt P23836); Sort-seq, item: YFP reporter; E. coli; PhoQ-PhoP variant library, added: 10 µM Mg2+; baseline: high Mg2+ state, higher = stronger signaling): 16.6

Some of these lines once more (study 3):
CTCACATC: -0.0804
CTCATTCA: -0.204
